Measured values pooled from the literature.
A part holds a random share of what one study measured. Changes are numbered by the printed parent chain.

Series 1
Target: CCNA2, cyclin fold, Cln2 fusion (human)
Method: yeast growth competition, sequencing
Medium: yeast
Setting: strong parent motif
Relative to: not given
Reading: higher = stronger binding
Starting sequence: CDKN1A docking peptide (human); SKACRRLFGPVDS; partner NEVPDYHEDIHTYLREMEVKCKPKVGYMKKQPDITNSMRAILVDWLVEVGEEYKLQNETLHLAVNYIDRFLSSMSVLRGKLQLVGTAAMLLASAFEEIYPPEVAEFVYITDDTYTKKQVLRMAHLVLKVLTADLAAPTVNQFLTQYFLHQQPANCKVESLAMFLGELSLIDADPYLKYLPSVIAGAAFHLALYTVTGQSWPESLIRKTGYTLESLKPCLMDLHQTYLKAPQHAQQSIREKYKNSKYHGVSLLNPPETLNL
Variant	normalised enrichment score
SKACRRLFGPVIS [D12I]	5.13
SKAQRRLFGPVDS [C4Q]	4.82
SKACRRLFGPWDS [V11W]	5.8
SKACDRLFGPVDS [R5D]	-0.749
SKACRRLFGMVDS [P10M]	4.8
SKACRREFGPVDS [L7E]	-0.15
SKACRRLLGPVDS [F8L]	0.541

Series 2
Target: ABI1, truncated, D143A, DHFR fusion (Arabidopsis thaliana)
Method: DHFR PCA, deep sequencing
Medium: yeast
Setting: methotrexate growth selection, single substitutions
Together with: (+)-ABA 0.39 µM
Relative to: wild-type fitted maximum
Reading: higher = stronger binding
Starting sequence: PYL1, truncated, DHFR fusion (Arabidopsis thaliana); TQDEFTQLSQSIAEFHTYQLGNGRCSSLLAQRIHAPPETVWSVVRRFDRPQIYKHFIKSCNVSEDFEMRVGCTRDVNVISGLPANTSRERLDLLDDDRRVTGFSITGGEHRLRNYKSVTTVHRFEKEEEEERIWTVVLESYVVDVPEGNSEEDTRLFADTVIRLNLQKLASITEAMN
Variant	relative binding score
S27T	-0.936%
F103L	4.91%
R113W	-7.59%
L8V	4.75%
L91E	-4.04%
E109H	21.9%
F124K	-2.32%
P50L	-0.862%

Series 3
Target: Ras GTPase-activating protein-binding protein 1, full length (G3BP1, Homo sapiens, UniProt Q13283)
Sequence of UniProt Q13283 (whole entry, looked up): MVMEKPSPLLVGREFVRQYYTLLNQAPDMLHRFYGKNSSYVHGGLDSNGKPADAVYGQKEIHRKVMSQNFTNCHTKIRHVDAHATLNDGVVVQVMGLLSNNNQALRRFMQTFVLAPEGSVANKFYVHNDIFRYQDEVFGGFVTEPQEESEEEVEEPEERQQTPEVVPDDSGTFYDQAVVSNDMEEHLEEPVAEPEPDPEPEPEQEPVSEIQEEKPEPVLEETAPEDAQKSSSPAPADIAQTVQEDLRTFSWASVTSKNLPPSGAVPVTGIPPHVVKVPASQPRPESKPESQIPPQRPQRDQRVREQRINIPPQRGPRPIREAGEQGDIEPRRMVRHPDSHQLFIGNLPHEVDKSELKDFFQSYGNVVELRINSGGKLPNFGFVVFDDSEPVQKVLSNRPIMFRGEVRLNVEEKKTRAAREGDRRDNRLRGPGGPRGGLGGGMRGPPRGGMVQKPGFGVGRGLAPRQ
Method: RNA Bind-n-Seq
Form: RNA
Medium: in vitro
Concentration: 200 nM
Setting: whole 134-nt RNA, ends assumed
Together with: 150 mM KCl
Relative to: input library
Reading: higher = stronger binding
All sequences stand within: GGGAGUUCUACAGUCCGACGAUC … UGGAAUUCUCGGGUGUCAAGG
Sequence	log2 enrichment
CCUGUGCUACACAUCGUAUGUACCGAAUCAAAUUUUUAAAUUUUUUUAAAUUUUUUUAAAAAAGUAUUAUGUUACGCCGUUCGGAUCUGC	-1.13
ACCAUGCAGGUGGGCAUCUUUGGGAAGUGGGGCUAGGGGGGGAUAGGGAGGGGGGUAACACUUUGGGAACAGGUGGUCCCAGGUCGUUUC	1.15
UGGGAGGUGGAUUUUGUUUAUUUUUUUAGCUCAUUUCCAGGGGUGGGAAUUUUUUUUUAAUAUGUGUCAUGAAUAAAGUUGUUUUUGAAC	0.325
UCCUGUGCUACACAUCGUAUGUACCGAAUCGGAAAAAAGGGGAAAAAAGGAAAAAAGGGGAAAGUAUUAUGUUACGCCGUUCGGAUCUGC	-0.604
UGGCUUCCUUCUUUCUAUUCCCCGCCUGCCUUCCAUGGUAGAGGCCAGUGACUUUGAGAUUAAUGGACUGGACUUCAUGGUAAGACCCUC	0.434
UGGCCCUGGUGGCAUGCGGGGAGGAAGAGGUGGCCUCAUGCAUCGUGGUGGUCCCGGUGGAAUGUUCAGAGGUGGCCGUGGUGGAGACAG	0.145
UGGGAGGUGGAUUUUGUUUAUUUUUUUAGCUCAUUUCCAGGGGUGGGAAUUUUUUUUUAAUAUGUGUCAUGAAUAAAGUUGGUUUUGAAA	0.158
AGUCCUGUGCUACACAUCGUAUGUACCGAAUCGGGGAGGGGAAAGGGGUUUUUGGGGAAAGUAUUAUGUUACGCCGUUCGGAUCUGCACU	0.296

Further values, each from its own experiment
Substance	target	assay	test system	setting	how to read	quantity	value
PhoQ, residues 284 288 289 292 302 303 AGGLSV	PhoP, residues 12 14 15 18 19 STHWV (Escherichia coli, UniProt P23836)	Sort-seq, refers to: YFP reporter	E. coli	PhoQ-PhoP variant library, together with: 10 µM Mg2+	relative to: high Mg2+ state, higher = stronger signaling	fold induction	1.58

For quick reference, copied from above (series 2):
Variant	relative binding score
F124K	-2.32%
L8V	4.75%
E109H	21.9%
L91E	-4.04%
